Assay results from different studies.
Cell line: MCF-10A

| SMILES | observed | technique | time | notes | quantity | value |
| --- | --- | --- | --- | --- | --- | --- |
| CC(=O)N1CCCC[C@H]1C(=O)NC(C)(C)C(=O)N1CCCC[C@H]1C(=O)NC(C)(C)C(=O)NC(C)(C)C(=O)N[C@@H](CC(C)C)C(=O)NC[C@H](C)C(=O)NCC(=O)NC(C)(C)C(=O)NC(C)(C)C(=O)N1CCCC[C@H]1C(=O)NC(C)(C)C(=O)NCC(=O)N[C@@H](CC(C)C)C(=O)NC(C)(C)C(=O)N[C@@H](CC(C)C)C[N+]1=C2CCCN2CCC1 | cell growth or viability | SRB | 48 h |  | GI50 | 0.096 µM |
| C[C@@H](O)[C@H](NC(=O)[C@H](CCCNC(=N)N)NC(=O)[C@H](CCCNC(=N)N)NC(=O)[C@H](CCCNC(=N)N)NC(=O)[C@@H]1CCCN1C(=O)[C@@H](N)CO)C(=O)N1CCC[C@H]1C(=O)N[C@@H](CO)C(=O)N1CCC[C@H]1C(=O)N[C@@H](CCCNC(=N)N)C(=O)N[C@@H](CCCNC(=N)N)C(=O)N[C@@H](CCCNC(=N)N)C(=O)N[C@@H](CCCNC(=N)N)C(=O)N[C@@H](CO)C(=O)N[C@@H](CCC(N)=O)C(=O)N[C@@H](CO)C(=O)N1CCC[C@H]1C(=O)N[C@@H](CCCNC(=N)N)C(=O)N[C@@H](CCCNC(=N)N)C(=O)N[C@@H](CCCNC(=N)N)C(N)=O | cell viability | CellTiter-Blue | 24 h | serum-free medium | IC50 | > 100 µM |
| C=CC[P](c1ccccc1)(c1ccccc1)[Pt]([S]c1nc2ccccc2s1)([S]c1nc2ccccc2s1)[P](CC=C)(c1ccccc1)c1ccccc1 | cell growth or viability | MTT |  |  | IC50 | 88.4 µM |
| CC(=O)N1CCCC[C@H]1C(=O)NC(C)(C)C(=O)N1CCCC[C@H]1C(=O)NC(C)(C)C(=O)NC(C)(C)C(=O)N[C@@H](CC(C)C)C(=O)NCCC(=O)N[C@@H](C)C(=O)NC(C)(C)C(=O)NC(C)(C)C(=O)N1CCCC[C@H]1C(=O)NC(C)(C)C(=O)NCC(=O)N[C@@H](CC(C)C)C(=O)NC(C)(C)C(=O)N[C@@H](CC(C)C)C[N+]1=C2CCCN2CCC1 | cell growth or viability | SRB | 48 h |  | GI50 | 0.213 µM |
| C#CCN[C@@H]1C=C[C@]2(O[C@H]([C@@H](CC)C(=O)[C@@H](C)[C@@H](O)[C@H](C)[C@@H]3O[C@@H]([C@@H](CC)C(=O)O)CC[C@@H]3C)[C@@H](C)C[C@H]2C)O[C@@]12CC[C@@](C)([C@H]1CC[C@](O)(CC)[C@H](C)O1)O2 | cell growth or viability | resazurin | 72 h |  | IC50 | 0.12 µM |
| N=C(N)NCCC[C@H](NC(=O)[C@H](CCCNC(=N)N)NC(=O)[C@@H]1CCCN1C(=O)[C@H](CCCNC(=N)N)NC(=O)[C@H](CCCNC(=N)N)NC(=O)[C@H](CCCNC(=N)N)NC(=O)[C@H](Cc1c[nH]c2ccccc12)NC(=O)[C@H](CCCNC(=N)N)NC(=O)[C@H](CCCNC(=N)N)NC(=O)[C@H](CCCNC(=N)N)NC(=O)[C@H](CCCNC(=N)N)NC(=O)[C@H](CCCNC(=N)N)NC(=O)[C@H](Cc1c[nH]c2ccccc12)NC(=O)[C@H](CCCNC(=N)N)NC(=O)[C@H](CCCNC(=N)N)NC(=O)[C@H](Cc1ccc(O)cc1)NC(=O)[C@H](CCCNC(=N)N)NC(=O)[C@H](CCCNC(=N)N)NC(=O)[C@H](CCCNC(=N)N)NC(=O)[C@@H](N)Cc1c[nH]c2ccccc12)C(N)=O | cell growth or viability | MTT | 24 h | serum-free | IC50 | 18.2 µM |
| C=CC[P](c1ccccc1)(c1ccccc1)[Pt]([S]c1ccccn1)([S]c1ccccn1)[P](CC=C)(c1ccccc1)c1ccccc1 | cell growth or viability | MTT |  |  | IC50 | 38.4 µM |
| CC[C@@H](C(=O)[C@@H](C)[C@@H](O)[C@H](C)[C@@H]1O[C@@H]([C@@H](CC)C(=O)O)CC[C@@H]1C)[C@H]1O[C@]2(C=C[C@H](N)[C@]3(CC[C@@](C)([C@H]4CC[C@](O)(CC)[C@H](C)O4)O3)O2)[C@H](C)C[C@@H]1C | cell growth or viability | resazurin | 72 h |  | IC50 | > 12.5 µM |
| CC[C@H](C)[C@@H]1NC(=O)[C@H](CCCNC(=N)N)NC(=O)C[C@@H](c2cccc3ccccc23)NC(=O)[C@@H]2CSSC[C@H](NC(=O)C[C@@H](c3cccc4ccccc34)NC(=O)[C@H](CCCNC(=N)N)NC(=O)[C@@H]3CCCN3C(=O)[C@@H]3CCCN3C1=O)C(=O)N[C@@H](Cc1ccccc1)C(=O)N1CCC[C@H]1C(=O)N[C@@H](CC(=O)O)C(=O)N[C@@H](CC(=O)O)C(=O)N[C@@H](Cc1ccccc1)C(=O)N2 | cell growth or viability | ATP luminescence |  |  | IC50 | > 40 µM |

A few entries again:
| SMILES | observed | technique | time | notes | quantity | value |
| --- | --- | --- | --- | --- | --- | --- |
| N=C(N)NCCC[C@H](NC(=O)[C@H](CCCNC(=N)N)NC(=O)[C@@H]1CCCN1C(=O)[C@H](CCCNC(=N)N)NC(=O)[C@H](CCCNC(=N)N)NC(=O)[C@H](CCCNC(=N)N)NC(=O)[C@H](Cc1c[nH]c2ccccc12)NC(=O)[C@H](CCCNC(=N)N)NC(=O)[C@H](CCCNC(=N)N)NC(=O)[C@H](CCCNC(=N)N)NC(=O)[C@H](CCCNC(=N)N)NC(=O)[C@H](CCCNC(=N)N)NC(=O)[C@H](Cc1c[nH]c2ccccc12)NC(=O)[C@H](CCCNC(=N)N)NC(=O)[C@H](CCCNC(=N)N)NC(=O)[C@H](Cc1ccc(O)cc1)NC(=O)[C@H](CCCNC(=N)N)NC(=O)[C@H](CCCNC(=N)N)NC(=O)[C@H](CCCNC(=N)N)NC(=O)[C@@H](N)Cc1c[nH]c2ccccc12)C(N)=O | cell growth or viability | MTT | 24 h | serum-free | IC50 | 18.2 µM |
